Measured values pooled from the literature.
Each numbered part is a random draw from the data of one study; scales do not carry over between parts. Substitutions count along the parent as printed.

Set 1
Target: Histone acetyltransferase KAT6A, both winged helices, GST fusion (KAT6A, Homo sapiens, UniProt Q92794, residues 1-181)
Method: protein binding microarray
Molecule type: double-stranded DNA, one strand shown
Matrix: in vitro
Tested at: not given
Notes: 8-mer, flanks averaged, mean of 2 arrays, mostly near background
Reference: not given
Direction: higher = stronger binding
Residues (chain): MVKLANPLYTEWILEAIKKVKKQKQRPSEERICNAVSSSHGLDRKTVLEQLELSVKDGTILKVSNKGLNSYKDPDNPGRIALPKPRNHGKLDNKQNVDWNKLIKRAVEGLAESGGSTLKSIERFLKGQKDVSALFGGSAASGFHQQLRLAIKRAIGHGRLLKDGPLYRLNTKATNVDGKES
Sequence | E-score
AAGATGAC | -0.115
ATGCGTGA | 0.0994
ATTGGCGA | -0.0197
CATGGGTA | -0.0673
GAGAATTA | -0.278
AGAGGACA | -0.142
ATACTCGC | 0.136
GATACCAC | 0.0278
AAATAAAA | -0.0691
ACCCCCAT | -0.243
AACCGTAT | 0.0796
ACCCGTCA | 0.214
CATCCGGC | 0.143
TACTACGA | -0.129
CCCAGCCC | -0.124
ATAGACGC | 0.194
AGATCTTG | -0.2
CGCGGGCC | 0.314
CCAGCAGA | -0.114
CACGGCAC | 0.247
AGCCAACG | -0.0121
CGAGGAAC | 0.165
GAATTCTC | 0.0264
CCCTCACA | -0.108
CGTAATCA | -0.0435

Set 2
Target: Interferon regulatory factor 5, full length, phosphomimetic (IRF5, Homo sapiens, UniProt Q13568-2, residues 1-514, K96S/S451D/S453D/S456D/S462D)
Method: protein-binding microarray
Molecule type: double-stranded DNA, one strand shown
Matrix: in vitro
Tested at: 250 nM
Notes: 60-bp whole probe
Added: salmon DNA 0.4 mg/ml
Reference: random background probes
Direction: higher = stronger binding
Constant ends, left off below: GCCTAGCAC … GTCTTGATTCGCTTGACGCTGCTG
Sequence | log fluorescence
TCATCTATGTCTGTTTTACTGTGCTAG | 1.02 z-score
TTAGATACCGGGACTGGATTAGTGCTA | 0.00186 z-score
GACTGACTGGGGTATCGGGACGTGCTA | 0.208 z-score
AAGAGTTTCCCTCCCTGAGTGTGCTAG | 0.658 z-score
GACGATCTCATTATCGAGACGTGCTAG | 1.39 z-score
TTAGAACTGGGGTATCTATTAGTGCTA | 0.156 z-score
GACGGTTTCGATTTTCGGGACGTGCTA | 8.55 z-score
ATAGGTATCGGTCTCGGTTAGTGCTAG | 6.35 z-score
TTAGATATCAGTTTGGATTAGTGCTAG | 1.24 z-score
CACGATTTCGGGTTTCGAGACGTGCTA | 4.86 z-score
CACGGTATCGACTTTCGGGACGTGCTA | 6.53 z-score
TTGTGTGTGTGTTTGTGTGTGTGCTAG | 0.129 z-score
TAGGTTTCACTTTCCAAAACGTGCTAG | 7.51 z-score
AGAGCAGACCCAGAGTGGCAGTGCTAG | -0.7 z-score
GACGGTTTCCTGTTCCTGACGTGCTAG | 0.569 z-score
TAAGGACTGGGGTATCGGTTAGTGCTA | 2.21 z-score
GACGGACTGGGTATGGGGACGTGCTAG | -0.396 z-score
TGAGAACTGAGACTGGATTAGTGCTAG | -0.114 z-score
TCTCCTCCCCCTCTGCCACCGTGCTAG | -0.398 z-score
GACGATTTGGGGTATCGAGACGTGCTA | 0.344 z-score
TGTTCATTTTCAAAACTGTTGTGCTAG | 1.32 z-score
TTACGTTTCGACTATCGGTTAGTGCTA | 9.92 z-score
TCACTTCTCCATTTTTCACTGTGCTAG | 1.31 z-score
TCAGGTAGCCTTATCCCACTGTGCTAG | -0.425 z-score

Set 3
Target: RNA binding protein fox-1 homolog 2, RRM domain, GST-SBP tag (RBFOX2, Homo sapiens, UniProt O43251-10, residues 100-194)
Method: RNA Bind-n-Seq
Molecule type: RNA
Matrix: in vitro
Tested at: 365 nM
Notes: natural RNA segment, single round, ends assumed
Reference: no-protein control
Direction: higher = stronger binding
Residues (chain): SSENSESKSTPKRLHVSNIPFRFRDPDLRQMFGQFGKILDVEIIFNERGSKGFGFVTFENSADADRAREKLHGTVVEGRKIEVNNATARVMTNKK
Sequence | RBNS enrichment (R)
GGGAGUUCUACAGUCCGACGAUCCACUAACAAAGGGGGCUUUUCUUCCAUAGUCUAUUCUGUAUAAAUAAUAAGUUGCCUGUUCCAGAAGUCUAACCCUAACCCCUCUGGUUGUCUGGGACCCCUUUCUGUGCUGGAAUUCUCGGGUGCCAA | 1.22
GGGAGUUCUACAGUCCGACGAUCUUUGUAUUUUUGAGUUGGAAAUUAUGAAACUUCACCAUAUUAUGAUCAUACAUAUUUUGAAGAACAGACUGACCAAAGCUCACCUGUUUUUUGUGUUAGGUGCUUUGGCUUGGAAUUCUCGGGUGCCAA | 1.31
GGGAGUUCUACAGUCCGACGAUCGCAGUUAACCUUCAAGACAUUCCACUUGCUAAAAUUAUUUAUUUUGUAAGGAGAGGUUUUAAUUAAAACAAAAAAAAAUUCUUUUUUUUUUUUUUUUCCAAUUUUACCUUUGGAAUUCUCGGGUGCCAA | 0.878
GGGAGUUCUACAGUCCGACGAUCUACUCUGAUGAAAGGACUCUUUCAUAAGCAUAUUUAUAGCUUUCUAAUCUAUACACAGUCUAUCCAUAGAUGCAUAUUUUACCCCAACUGGCUAGAGAUUUAUUUGUUGUUGGAAUUCUCGGGUGCCAA | 1.58
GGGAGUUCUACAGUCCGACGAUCUACCUUGUAUCUUGGUCUGGAUUCUCUCUCUGAGACCCCGGAUUUUACUUUCUCUUUGGAGGGCGCUGGGACAUACAUCUCUCAAUCCAGCUUCCUCCGCAUCCUCCCAUUGGAAUUCUCGGGUGCCAA | 0.578
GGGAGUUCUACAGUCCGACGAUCGUCUUUAAAGAGAAUUUUGGGGCUCAAUAAUUUAACAUAAUGUCAGUGUUAAAGCACUUAAUCCAAAUUAGCCCAUCUUUAACUGUUUUGAAAAAUCUAUAUUUAUUAAAUGGAAUUCUCGGGUGCCAA | 1.06
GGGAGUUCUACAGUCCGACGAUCGGCUGUCAAGAGAAUCUAGGUCUGCUAUGACUUAUUCCAAGUCCUCAGAGUUAAGUCAAGGAGUGUUCUUUGCCCCAGUCUCCCUAAGACAGUGCCUAUACAUUGGACAAUGGAAUUCUCGGGUGCCAA | 0.273
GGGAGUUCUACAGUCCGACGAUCGAUCAGCUGUUCUUAGAUGCUGGUGGGCAUUUGAACAUGCUCCUCCAUGAUUCUGAAGCAUGCACACCUCUGAAGACCCCUGCAUGAAAAUAACCUCCAAGGACCCUCUGUGGAAUUCUCGGGUGCCAA | 16.8
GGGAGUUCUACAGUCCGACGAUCAAUGUUAUUAUUGGCUUGCACUUUGUGAGUAUUCUAUGUAAAAAUAUAUAUGUAUAUAAAAUAUAUAUUGCAUAGGACAGACUUAGGAGUUUUGUUUAGAGCAGUUAACAUGGAAUUCUCGGGUGCCAA | 4.2
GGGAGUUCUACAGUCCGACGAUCUUAUAGGCAAAGUAUCAAAUUGUCUUCUUAAUAUGAUAAACUGUGCUUUAUCAUUCUGAAAACUCAGGAUACAGCUUAUUCAUAGCAUUGUGGGUCUCUCCAGUAAGAAAUGGAAUUCUCGGGUGCCAA | 0.313
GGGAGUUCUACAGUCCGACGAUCAAGAAGCGAAUUUCUGUGAAGAAGAAGCAAGAACAACCCUGACCCCUGUCCCCAACUCCAUUAUUUAUUUUGGAGCUGCCCCGCCUGGGUGGCAGGACCCCUGGGCCCUGUGGAAUUCUCGGGUGCCAA | 0.174
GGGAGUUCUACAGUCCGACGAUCAGUGAGGAGAAUGGGGAGUCCAUGGUUCAAGGUCAGAUGCGGCCACCAGCUGGCUUUGUGACCUUGGGCGAGUCGCCUCCCCUCUCUGAGCUGAAGCCGCCCCUCCCCUAUGGAAUUCUCGGGUGCCAA | 0.227

Set 4
Target: CCNB2, cyclin fold, Cln2 fusion (human)
Method: yeast growth competition, sequencing
Matrix: yeast
Notes: weak parent motif
Reference: not given
Direction: higher = stronger binding
Starting sequence: E2F2 docking peptide (human); LPAKRKLDLEGIG; partner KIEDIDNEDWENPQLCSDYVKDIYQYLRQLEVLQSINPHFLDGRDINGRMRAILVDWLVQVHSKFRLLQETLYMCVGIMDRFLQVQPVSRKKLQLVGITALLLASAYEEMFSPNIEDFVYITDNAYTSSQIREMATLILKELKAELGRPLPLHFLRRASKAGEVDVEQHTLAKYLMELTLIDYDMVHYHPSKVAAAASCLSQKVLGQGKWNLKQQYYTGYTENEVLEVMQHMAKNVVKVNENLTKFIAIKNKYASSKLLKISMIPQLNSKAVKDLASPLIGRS
Variant | normalised enrichment score
E10A | 0.412
I12A | 0.104
L1A | 0.126
L9F | 1.9
G13A | 0.583
L7A | -0.0317
P2A | 0.0913

Set 5
Target: ABI1, truncated, D143A, DHFR fusion (Arabidopsis thaliana)
Method: DHFR PCA, deep sequencing
Matrix: yeast
Notes: methotrexate growth selection, single substitutions
Added: (+)-ABA 710 µM
Reference: wild-type fitted maximum
Direction: higher = stronger binding
Starting sequence: PYL1, truncated, DHFR fusion (Arabidopsis thaliana); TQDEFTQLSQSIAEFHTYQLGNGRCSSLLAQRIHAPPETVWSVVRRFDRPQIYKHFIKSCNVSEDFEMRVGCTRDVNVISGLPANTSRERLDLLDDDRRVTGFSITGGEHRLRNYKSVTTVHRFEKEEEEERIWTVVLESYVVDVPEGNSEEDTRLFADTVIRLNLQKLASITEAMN
Variant | relative binding score [%]
R45S | 92.7
S104L | 63.1
S9H | 84.4
E14V | 88.7
E139H | 93.5
E109C | 101
L138P | 8.72
Y115G | -0.282
T86L | 96.5
S9Y | 78.1
D159H | 70.3
C60W | 12.4
R132H | 110
